Published values pooled from the literature.
“And” joins repeats or separate records; there may be more than shown. ± marks the error that the study gave.
Chain of UniProt P10635 (whole entry, looked up): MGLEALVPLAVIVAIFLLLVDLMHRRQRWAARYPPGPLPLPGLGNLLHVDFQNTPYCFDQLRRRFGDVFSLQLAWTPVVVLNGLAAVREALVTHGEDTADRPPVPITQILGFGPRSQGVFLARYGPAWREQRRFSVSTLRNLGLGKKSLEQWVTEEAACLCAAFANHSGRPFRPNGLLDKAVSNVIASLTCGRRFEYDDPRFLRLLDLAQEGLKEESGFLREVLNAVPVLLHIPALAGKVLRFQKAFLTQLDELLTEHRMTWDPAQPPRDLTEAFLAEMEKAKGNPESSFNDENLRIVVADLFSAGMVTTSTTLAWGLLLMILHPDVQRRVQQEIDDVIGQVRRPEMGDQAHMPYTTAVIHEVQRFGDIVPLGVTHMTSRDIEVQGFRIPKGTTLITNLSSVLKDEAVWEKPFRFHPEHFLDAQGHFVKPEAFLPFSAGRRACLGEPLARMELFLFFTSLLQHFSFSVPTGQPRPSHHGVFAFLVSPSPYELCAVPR
Chain of UniProt Q9UNQ0 (whole entry, looked up): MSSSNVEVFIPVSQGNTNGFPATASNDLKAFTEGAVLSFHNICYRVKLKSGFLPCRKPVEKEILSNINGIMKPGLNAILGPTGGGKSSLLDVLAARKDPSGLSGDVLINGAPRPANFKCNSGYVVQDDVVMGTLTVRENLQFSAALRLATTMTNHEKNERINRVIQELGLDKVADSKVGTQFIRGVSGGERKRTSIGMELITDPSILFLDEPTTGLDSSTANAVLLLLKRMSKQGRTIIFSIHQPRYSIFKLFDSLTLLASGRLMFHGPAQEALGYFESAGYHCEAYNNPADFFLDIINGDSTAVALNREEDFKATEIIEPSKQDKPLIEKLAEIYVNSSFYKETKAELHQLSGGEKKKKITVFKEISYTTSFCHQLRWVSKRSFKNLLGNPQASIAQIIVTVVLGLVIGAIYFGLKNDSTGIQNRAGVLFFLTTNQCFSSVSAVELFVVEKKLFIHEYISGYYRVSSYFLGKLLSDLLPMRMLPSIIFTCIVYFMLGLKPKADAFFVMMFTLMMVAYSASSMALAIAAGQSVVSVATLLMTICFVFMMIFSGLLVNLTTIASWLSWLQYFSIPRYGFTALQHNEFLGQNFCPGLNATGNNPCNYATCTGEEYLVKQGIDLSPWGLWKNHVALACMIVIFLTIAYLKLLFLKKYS
Chain of UniProt Q9NPD5 (whole entry, looked up): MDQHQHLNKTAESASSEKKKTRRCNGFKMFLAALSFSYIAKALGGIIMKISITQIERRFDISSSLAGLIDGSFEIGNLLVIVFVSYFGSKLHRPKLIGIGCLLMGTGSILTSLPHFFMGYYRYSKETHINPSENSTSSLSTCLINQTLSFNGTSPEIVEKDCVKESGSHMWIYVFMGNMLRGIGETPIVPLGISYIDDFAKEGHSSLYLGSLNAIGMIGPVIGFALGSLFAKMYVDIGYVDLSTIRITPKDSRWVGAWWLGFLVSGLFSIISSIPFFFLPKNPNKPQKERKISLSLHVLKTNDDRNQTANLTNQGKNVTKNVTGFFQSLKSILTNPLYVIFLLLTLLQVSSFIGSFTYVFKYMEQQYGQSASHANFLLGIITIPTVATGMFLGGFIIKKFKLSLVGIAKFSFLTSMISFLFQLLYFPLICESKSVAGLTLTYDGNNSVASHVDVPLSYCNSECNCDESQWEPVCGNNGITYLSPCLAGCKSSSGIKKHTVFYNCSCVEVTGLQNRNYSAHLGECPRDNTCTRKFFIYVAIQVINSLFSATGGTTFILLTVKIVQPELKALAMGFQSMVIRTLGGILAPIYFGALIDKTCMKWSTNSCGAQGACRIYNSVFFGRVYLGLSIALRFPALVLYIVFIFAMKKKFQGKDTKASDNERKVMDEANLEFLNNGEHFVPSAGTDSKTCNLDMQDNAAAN

| SMILES | target or system | assay | system | setting | how to read | endpoint | value |
| --- | --- | --- | --- | --- | --- | --- | --- |
| N#C[C@@H]1CC(F)(F)CN1C(=O)CNC(=O)c1ccnc2c(NC(=O)[C@H](CCCCNC(=O)CCOCCOCCOCCOCCOCCOCCNC(=O)CN3CCN(CC(=O)[O-])CCN(CC(=O)[O-])CCN(CC(=O)[O-])CC3)NC(=O)CCCc3ccc(I)cc3)cccc12.[177Lu+3] | U-87 MG tumour model |  | host not given, pancreas | 1 h, tumour-bearing |  | tracer uptake | 4.31 %ID/g |
| CC[n+]1cccc2cc(/C=N/NC(=O)N/N=C/c3ccc4c(ccc[n+]4CC)c3)ccc21 | hp2 hairpin duplex DNA | FRET melting |  | 1 µM |  | ΔTm | 2.2 ± 0.5 °C |
| O=C(c1ccc(OCCN2CCCCC2)cc1)c1c(-c2ccc(O)cc2)sc2cc(O[C@@H]3O[C@H](C(=O)O)[C@@H](O)[C@H](O)[C@H]3O)ccc12 | SLCO1B3 (Homo sapiens, UniProt Q9NPD5) |  | HEK293 expressing SLCO1B3 | pH 7.4 |  | Vmax | 21.2 pmol/min/mg protein |
| CN1CCCNC(=O)c2cccc(c2)C(=O)NCCCN(C)CCCNc2cccc3c2C(=O)c2cccc(c2C3=O)NCCC1 | NHEK | CCK-8 |  | 0.05 µM, 48 h | baseline: untreated | viability | 84.5% |
| CNc1nc(N)nc2c1ncn2[C@@H]1O[C@H](CO)[C@@H](O)[C@@]1(C)F | ABCG2 (Homo sapiens, UniProt Q9UNQ0) | bidirectional transport | MDCKII transfected with human BCRP | 10 µM |  | Papp A to B | 5.82 ± 0.25 ×10⁻⁶ cm/s |
| C=C(NC(=O)c1csc(-c2nc3c(cc2O)-c2nc(cs2)C(=O)NC(C(C)O)C(=O)NC(=C(C)OC)c2nc(cs2)C(=O)NC2c4nc(cs4)C(=O)NC(COC(=O)c4c5c6c(cccc6n4O)COC(=O)C(OC4CC(C)(O)C(N(C)C)C(C)O4)C2OC5)c2nc-3cs2)n1)C(N)=O (centres unmarked) |  |  | Sprague-Dawley rats, both sexes, plasma | intravenous infusion, 6 mg/kg, day 1, multiple dosing |  | AUC(0-inf) | 1790 ng·h/mL |
| CNC(=O)C1CCCN(C(=O)C2CC3CCC2N3C(=O)[C@@H]2C[C@@H](O)CN2C(=O)NCc2cccc(Cl)c2F)C1 (mixture of isomers) | Cytochrome P450 2D6 (CYP2D6, Homo sapiens, UniProt P10635) | enzyme activity, inhibitor, time-dependent inhibition |  | 1.85 µM, preincubated with NADPH |  | dextrorphan formation | 131 ng/mL |
| O=C(N/N=C/c1cc[n+](CC2CC2)c2ccccc12)c1cccc(C(=O)N/N=C/c2cc[n+](CC3CC3)c3ccccc23)n1 | hp2 hairpin duplex DNA | FRET melting |  | 1 µM, with: ds26 10 µM |  | ΔTm | 1.4 ± 0.3 °C |
| CC(C)OCCOCc1ccc(OCC(O)CN(N=O)C(C)C)cc1 (centres unmarked) | Salmonella typhimurium | Ames test | TA1537 | 158 µg/plate, without metabolic activation | baseline: solvent control | revertant fold increase | 0.7 fold |
| O=C1C2CC3CC1CC(C(=O)N1CCN(c4ccc([N+](=O)[O-])c5ncccc45)CC1)(C3)C2 | Salmonella typhimurium | Ames test | TA100 | 0.05 µg/well, without S9 | baseline: vehicle | revertant fold increase | 0.8 |
| CCN(CC)CC#CCNc1ccnc2cc(Cl)ccc12 | Salmonella typhimurium | mini-Ames test | TA102 | 125.0 µg/well, with rat liver S9 |  | revertants | 94 revertants/well and 88 revertants/well |
